Measured values gathered from unrelated publications.
Every numbered part comes from another study and shows a few of its results, in no order. Substitutions count along the parent as printed.
Sequence of UniProt P10721 (whole entry, unmodified, looked up): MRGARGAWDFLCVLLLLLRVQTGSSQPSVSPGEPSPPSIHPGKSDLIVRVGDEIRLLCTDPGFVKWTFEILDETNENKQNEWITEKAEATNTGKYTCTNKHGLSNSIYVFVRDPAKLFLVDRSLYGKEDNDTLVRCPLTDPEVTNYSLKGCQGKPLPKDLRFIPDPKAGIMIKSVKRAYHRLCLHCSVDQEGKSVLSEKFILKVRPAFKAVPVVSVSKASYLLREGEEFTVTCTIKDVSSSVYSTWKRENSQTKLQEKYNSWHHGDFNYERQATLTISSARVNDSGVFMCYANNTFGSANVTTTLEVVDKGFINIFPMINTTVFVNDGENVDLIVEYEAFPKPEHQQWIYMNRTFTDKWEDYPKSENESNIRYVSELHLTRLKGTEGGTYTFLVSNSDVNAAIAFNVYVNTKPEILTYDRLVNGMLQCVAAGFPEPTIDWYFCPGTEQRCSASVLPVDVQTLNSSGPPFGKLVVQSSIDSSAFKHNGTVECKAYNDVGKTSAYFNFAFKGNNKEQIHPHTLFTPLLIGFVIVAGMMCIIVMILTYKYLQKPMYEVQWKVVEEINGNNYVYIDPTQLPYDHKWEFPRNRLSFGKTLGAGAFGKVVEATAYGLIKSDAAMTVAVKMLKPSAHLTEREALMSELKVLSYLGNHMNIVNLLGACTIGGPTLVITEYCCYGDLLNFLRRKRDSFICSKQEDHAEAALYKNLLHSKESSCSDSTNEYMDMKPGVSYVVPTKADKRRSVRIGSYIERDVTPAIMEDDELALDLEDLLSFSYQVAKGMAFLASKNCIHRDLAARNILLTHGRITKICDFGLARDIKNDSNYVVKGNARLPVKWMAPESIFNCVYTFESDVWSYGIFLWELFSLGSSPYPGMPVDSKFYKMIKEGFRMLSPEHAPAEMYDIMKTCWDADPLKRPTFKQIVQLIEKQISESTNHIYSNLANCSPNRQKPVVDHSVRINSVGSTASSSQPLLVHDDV
Sequence of UniProt P21709 (whole entry, looked up): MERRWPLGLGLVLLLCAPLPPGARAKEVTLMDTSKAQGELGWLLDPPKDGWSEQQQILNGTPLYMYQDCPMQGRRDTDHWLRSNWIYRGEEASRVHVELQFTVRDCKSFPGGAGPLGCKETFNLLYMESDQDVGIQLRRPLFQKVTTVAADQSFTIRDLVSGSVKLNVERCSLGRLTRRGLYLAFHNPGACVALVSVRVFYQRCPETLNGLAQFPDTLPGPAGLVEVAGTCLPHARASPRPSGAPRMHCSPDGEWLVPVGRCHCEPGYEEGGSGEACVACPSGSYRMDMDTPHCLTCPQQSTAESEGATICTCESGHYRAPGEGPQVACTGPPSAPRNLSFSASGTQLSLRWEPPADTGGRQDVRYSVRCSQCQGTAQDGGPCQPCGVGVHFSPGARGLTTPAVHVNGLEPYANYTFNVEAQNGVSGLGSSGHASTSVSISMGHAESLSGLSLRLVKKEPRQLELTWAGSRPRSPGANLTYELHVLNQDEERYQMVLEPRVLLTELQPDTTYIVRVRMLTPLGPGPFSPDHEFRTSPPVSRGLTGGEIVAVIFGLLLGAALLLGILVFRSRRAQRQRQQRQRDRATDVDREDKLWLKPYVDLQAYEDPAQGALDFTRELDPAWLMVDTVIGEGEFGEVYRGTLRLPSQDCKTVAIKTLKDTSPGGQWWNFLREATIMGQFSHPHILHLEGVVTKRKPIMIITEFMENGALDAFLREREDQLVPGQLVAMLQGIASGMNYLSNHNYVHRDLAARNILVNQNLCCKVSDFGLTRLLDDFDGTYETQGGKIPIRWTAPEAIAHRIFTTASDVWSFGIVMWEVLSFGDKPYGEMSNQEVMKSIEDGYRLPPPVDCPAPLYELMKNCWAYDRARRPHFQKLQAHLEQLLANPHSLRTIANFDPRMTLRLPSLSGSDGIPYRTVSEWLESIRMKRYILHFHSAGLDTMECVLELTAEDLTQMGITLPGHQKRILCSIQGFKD
Sequence of UniProt O15146 (whole entry, looked up): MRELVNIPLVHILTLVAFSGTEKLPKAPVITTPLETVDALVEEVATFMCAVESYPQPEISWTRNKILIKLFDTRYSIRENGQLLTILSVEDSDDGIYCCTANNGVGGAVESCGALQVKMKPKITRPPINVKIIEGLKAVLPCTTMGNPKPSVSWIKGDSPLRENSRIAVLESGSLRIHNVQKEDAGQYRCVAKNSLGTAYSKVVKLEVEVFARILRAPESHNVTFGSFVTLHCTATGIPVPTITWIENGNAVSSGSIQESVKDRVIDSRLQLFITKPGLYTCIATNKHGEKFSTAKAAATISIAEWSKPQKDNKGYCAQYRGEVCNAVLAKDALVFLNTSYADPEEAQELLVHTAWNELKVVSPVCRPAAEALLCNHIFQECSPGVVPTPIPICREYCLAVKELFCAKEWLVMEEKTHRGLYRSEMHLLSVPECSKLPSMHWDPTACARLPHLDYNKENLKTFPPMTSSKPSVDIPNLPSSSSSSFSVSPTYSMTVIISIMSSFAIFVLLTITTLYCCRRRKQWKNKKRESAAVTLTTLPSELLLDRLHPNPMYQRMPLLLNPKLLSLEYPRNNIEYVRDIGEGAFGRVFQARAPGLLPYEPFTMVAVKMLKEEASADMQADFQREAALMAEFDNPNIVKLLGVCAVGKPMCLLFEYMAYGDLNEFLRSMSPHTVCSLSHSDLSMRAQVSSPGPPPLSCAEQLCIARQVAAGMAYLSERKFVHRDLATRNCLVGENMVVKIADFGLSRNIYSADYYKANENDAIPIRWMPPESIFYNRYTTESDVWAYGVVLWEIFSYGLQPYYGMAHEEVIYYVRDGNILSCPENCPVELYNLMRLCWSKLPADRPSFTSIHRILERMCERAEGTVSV
Sequence of UniProt P42336 (whole entry, unmodified, looked up): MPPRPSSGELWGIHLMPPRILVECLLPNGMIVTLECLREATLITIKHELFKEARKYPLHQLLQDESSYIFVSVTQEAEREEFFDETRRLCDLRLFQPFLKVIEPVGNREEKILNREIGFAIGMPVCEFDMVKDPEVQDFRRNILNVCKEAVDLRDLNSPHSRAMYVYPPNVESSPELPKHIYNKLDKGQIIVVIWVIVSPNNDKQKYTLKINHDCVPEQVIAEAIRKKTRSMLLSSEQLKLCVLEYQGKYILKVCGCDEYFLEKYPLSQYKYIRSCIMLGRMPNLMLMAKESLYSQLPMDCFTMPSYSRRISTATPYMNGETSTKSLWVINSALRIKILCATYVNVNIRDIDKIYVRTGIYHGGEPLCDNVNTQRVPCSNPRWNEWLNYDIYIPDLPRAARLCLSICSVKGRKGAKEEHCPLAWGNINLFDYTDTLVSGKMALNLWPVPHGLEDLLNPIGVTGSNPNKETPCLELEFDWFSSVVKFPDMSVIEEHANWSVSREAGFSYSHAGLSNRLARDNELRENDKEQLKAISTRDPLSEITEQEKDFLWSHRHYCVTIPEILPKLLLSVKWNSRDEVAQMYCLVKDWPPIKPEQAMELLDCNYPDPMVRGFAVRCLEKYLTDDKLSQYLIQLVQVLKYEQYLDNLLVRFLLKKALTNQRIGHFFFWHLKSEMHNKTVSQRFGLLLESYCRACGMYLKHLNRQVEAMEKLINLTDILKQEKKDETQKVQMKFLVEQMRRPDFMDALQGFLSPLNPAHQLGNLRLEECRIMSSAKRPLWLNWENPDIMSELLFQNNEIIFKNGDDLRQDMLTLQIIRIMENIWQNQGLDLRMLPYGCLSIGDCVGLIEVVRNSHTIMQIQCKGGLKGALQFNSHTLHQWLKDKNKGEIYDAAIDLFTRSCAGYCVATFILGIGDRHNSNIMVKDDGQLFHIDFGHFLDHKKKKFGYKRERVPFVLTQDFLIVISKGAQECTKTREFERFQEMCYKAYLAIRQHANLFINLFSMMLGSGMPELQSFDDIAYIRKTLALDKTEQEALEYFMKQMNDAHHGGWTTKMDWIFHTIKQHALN
Sequence of UniProt P00519 (whole entry, unmodified, looked up): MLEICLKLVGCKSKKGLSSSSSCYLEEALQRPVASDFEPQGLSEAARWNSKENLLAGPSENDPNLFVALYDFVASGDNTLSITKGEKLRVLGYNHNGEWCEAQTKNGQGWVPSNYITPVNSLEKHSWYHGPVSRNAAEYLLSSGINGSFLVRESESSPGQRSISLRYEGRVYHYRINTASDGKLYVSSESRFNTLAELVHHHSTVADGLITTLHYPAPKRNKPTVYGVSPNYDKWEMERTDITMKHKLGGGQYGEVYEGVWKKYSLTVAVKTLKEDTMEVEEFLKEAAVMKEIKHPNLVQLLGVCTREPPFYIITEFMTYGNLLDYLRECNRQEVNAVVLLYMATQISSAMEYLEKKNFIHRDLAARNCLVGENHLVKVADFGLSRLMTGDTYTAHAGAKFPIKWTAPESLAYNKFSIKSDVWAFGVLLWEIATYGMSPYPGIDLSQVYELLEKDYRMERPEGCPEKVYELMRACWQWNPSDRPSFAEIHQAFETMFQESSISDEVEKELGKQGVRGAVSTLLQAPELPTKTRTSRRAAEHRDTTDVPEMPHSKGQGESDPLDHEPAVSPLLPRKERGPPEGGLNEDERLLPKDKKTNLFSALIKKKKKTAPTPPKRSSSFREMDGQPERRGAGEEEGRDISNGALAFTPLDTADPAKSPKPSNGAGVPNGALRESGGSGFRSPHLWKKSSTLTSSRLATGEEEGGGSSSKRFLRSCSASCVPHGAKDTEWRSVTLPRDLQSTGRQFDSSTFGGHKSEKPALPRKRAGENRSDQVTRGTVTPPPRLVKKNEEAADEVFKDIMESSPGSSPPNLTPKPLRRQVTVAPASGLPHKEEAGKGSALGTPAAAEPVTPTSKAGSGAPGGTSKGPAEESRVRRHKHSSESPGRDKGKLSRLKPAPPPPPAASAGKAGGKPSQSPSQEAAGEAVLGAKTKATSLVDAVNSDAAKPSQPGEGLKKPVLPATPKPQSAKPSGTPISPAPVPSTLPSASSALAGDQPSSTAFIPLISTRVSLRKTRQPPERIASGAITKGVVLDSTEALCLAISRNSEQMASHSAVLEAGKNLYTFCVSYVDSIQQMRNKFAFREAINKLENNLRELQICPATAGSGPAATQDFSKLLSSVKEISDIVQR

Sample 1 — technique: competition with immobilised ligand; concentration: 0.1 µM
SMILES: COCCOc1nc(-c2ccc(Cl)nc2)nc2c1CN(C(=O)c1ncn3ccccc13)CC2
target	effect on	remaining binding [%]
CDK17 (Homo sapiens, UniProt Q00537)	cell-free assay	100
KIT (Homo sapiens, UniProt P10721)	cell-free assay	100
KIT (Homo sapiens, UniProt P10721, V559D/V654A)	cell-free assay	75
Tyrosine-protein kinase ABL1, non-phosphorylated (ABL1, Homo sapiens, UniProt P00519, F317I)	binding	100
CSNK2A2 (Homo sapiens, UniProt P19784)	cell-free assay	100
CSNK1G3 (Homo sapiens, UniProt Q9Y6M4)	cell-free assay	100
ACVR1B (Homo sapiens, UniProt P36896)	cell-free assay	86
EPHA1 (Homo sapiens, UniProt P21709)	cell-free assay	100
MET (Homo sapiens, UniProt P08581, Y1235D)	cell-free assay	100
MUSK (Homo sapiens, UniProt O15146)	cell-free assay	100
PIK3CA (Homo sapiens, UniProt P42336, E542K)	cell-free assay	87

Sample 2 — target: CRIPT, C-terminal peptide; technique: DHFR complementation, deep sequencing; matrix: yeast; reference: wild type; direction: higher = weaker binding
Notes: single substitutions, model-inferred values
Starting sequence: ERBIN, PDZ domain 1 (human); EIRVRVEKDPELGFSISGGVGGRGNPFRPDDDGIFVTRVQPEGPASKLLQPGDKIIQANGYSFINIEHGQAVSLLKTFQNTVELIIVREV; partner TKNYKQTSV
Variant	binding free energy change
K54A	1.8 kJ/mol
V87R	0.0283 kJ/mol
V72K	6.85 kJ/mol
Q57T	-0.268 kJ/mol
S17W	6.03 kJ/mol
S46L	0.832 kJ/mol
R5C	0.27 kJ/mol
V87Y	-0.0335 kJ/mol

Sample 3 — effect on: enzyme activity; action: inhibitor; concentration: 0.5 µM; reference: control
Target: Mitogen-activated protein kinase kinase kinase 3 (MAP3K3, Homo sapiens, UniProt Q99759)
Residues (Q99759 1-626): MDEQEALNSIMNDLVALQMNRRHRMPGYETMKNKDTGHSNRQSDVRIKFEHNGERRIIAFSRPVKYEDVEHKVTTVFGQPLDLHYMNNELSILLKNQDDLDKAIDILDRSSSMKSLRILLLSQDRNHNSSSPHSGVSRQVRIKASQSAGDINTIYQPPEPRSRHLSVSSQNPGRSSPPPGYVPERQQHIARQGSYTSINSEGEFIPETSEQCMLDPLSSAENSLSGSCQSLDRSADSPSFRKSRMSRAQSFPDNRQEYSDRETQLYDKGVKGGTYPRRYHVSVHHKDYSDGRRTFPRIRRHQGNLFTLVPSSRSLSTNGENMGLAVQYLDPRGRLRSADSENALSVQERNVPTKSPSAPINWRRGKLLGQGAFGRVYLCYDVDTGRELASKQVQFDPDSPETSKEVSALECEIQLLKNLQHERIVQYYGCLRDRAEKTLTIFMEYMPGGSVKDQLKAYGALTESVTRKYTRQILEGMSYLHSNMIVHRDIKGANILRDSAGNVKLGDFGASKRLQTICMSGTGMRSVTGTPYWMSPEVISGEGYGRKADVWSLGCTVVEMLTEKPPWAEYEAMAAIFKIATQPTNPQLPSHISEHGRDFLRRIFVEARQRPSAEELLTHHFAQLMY
Compound	remaining activity
C#Cc1cccc(Nc2ncnc3cc(OCCOC)c(OCCOC)cc23)c1	117%
O=C1NC(=O)C(c2cn(CCCO)c3ncccc23)=C1c1cnccn1	88.3%
Cn1c2ccccc2c2c3c(c4c5ccccc5n(CCC#N)c4c21)CNC3=O	5.86%

Sample 4 — technique: protein-binding microarray; molecule type: double-stranded DNA, one strand shown; matrix: in vitro; concentration: not given; direction: higher = stronger binding
Target: Max-binding protein MNT, bHLH-zipper, MAX partner unstated (MNT, Homo sapiens, UniProt Q99583, residues 220-300)
Notes: k-mer, scored over probes, only values ≥0.25
Construct (chain): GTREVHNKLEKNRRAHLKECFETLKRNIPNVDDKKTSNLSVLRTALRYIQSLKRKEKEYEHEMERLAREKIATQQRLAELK
Oligonucleotide	E-score
GGGGCGAA	0.291
TAGCGTGA	0.273
ACTCCACG	0.335
GCGTGGCA	0.415
ACGTGCCG	0.433
CATGCCAG	0.276
GCCCCTCC	0.293
CGACCCAC	0.259

For quick reference, copied from above (sample 2):
Variant	binding free energy change
K54A	1.8 kJ/mol
S17W	6.03 kJ/mol
